# Assay results from different studies.
# A part holds a random share of what one study measured. Substitutions count along the parent as printed.

# Block 1
# Target: CCNE1, cyclin fold, Cln2 fusion (human)
# Technique: yeast growth competition, sequencing
# Medium: yeast
# Setting: weak parent motif
# Baseline: not given
# Direction: higher = stronger binding
# Starting sequence: PKN2 docking peptide (human); VSAVQKLDFSDTM
Change,normalised enrichment score
VSAVQKLDFSDEM [T12E],1.46
VSAVQKRDFSDTM [L7R],0.2
VSAVQKWDFSDTM [L7W],0.3
VWAVQKLDFSDTM [S2W],0.787
CSAVQKLDFSDTM [V1C],1.37
VSAVQKLDSSDTM [F9S],0.179
DSAVQKLDFSDTM [V1D],0.531
VSAVQKNDFSDTM [L7N],0.0174
VSAVQKLDFSITM [D11I],-0.251
VLAVQKLDFSDTM [S2L],0.372
VSAPQKLDFSDTM [V4P],0.833
VSAVQKLDFSPTM [D11P],0.475
VSAVQKLTFSDTM [D8T],0.37
VSAVQKLDFSDTC [M13C],0.492
VSAVQKLDFSDQM [T12Q],0.559
VSGVQKLDFSDTM [A3G],-0.0579
VSAVQKLDASDTM [F9A],0.168
VSAVQKLDISDTM [F9I],-0.0537
VSAVAKADFSDTM [Q5A L7A],0.17
VSALQKLDFSDTM [V4L],0.226
VQAVQKLDFSDTM [S2Q],0.608
VSYVQKLDFSDTM [A3Y],0.372

# Block 2
# Target: Interferon regulatory factor 5, full length, phosphomimetic (IRF5, Homo sapiens, UniProt Q13568-2, residues 1-514, K96S/S451D/S453D/S456D/S462D)
# Technique: protein-binding microarray
# Form: double-stranded DNA, one strand shown
# Medium: in vitro
# Tested at: 250 nM
# Setting: 60-bp whole probe
# Added: salmon DNA 0.4 mg/ml
# Baseline: random background probes
# Direction: higher = stronger binding
# All sequences stand within: GCCTAGCAC … GTCTTGATTCGCTTGACGCTGCTG
Strand,log fluorescence
TTAGGTTCCCATTTCCTTTAGTGCTAG,0.459 z-score
GACGGTATCCGACTGCTGACGTGCTAG,-0.366 z-score
GACGGACTGGGTTTCGCGACGTGCTAG,-0.24 z-score
TTAGGTATCGGAGTGGGTTAGTGCTAG,1.23 z-score
GACGGTTCCCCTTTCCTGACGTGCTAG,0.146 z-score
TCATTTTTCTCAACCGTACTGTGCTAG,1.17 z-score
TCAAACTTGTGTTTGTCACTGTGCTAG,0.316 z-score
GACGGTTTGGGTATCGGGACGTGCTAG,0.692 z-score
TTAGGTATCCTTCTCCATTAGTGCTAG,0.427 z-score
GACGATTTCAGTTTCGAAACGTGCTAG,8.05 z-score
TTAGATTTCAGGTTCGATTAGTGCTAG,1.5 z-score
TTTGGTATCCTACTGCTTTAGTGCTAG,0.344 z-score
GGGTCTGTGCCTTTTTTTTTGTGCTAG,-0.21 z-score
TTAGGTCTCCTTTTCCCTTAGTGCTAG,0.142 z-score
GACGACCTGAGTTTCGAGACGTGCTAG,4.1 z-score
GACGGTAACGACTTTCGGGACGTGCTA,5.75 z-score
GACGGTCTGCTACTGCTGACGTGCTAG,-0.465 z-score
CAAGTTACGGAATTTCCCTCTGTGCTA,0.564 z-score
GAGGAACTGGGGTTTCGAGACGTGCTA,0.953 z-score

# Block 3
# Target: RNA binding protein fox-1 homolog 2, RRM domain, GST-SBP tag (RBFOX2, Homo sapiens, UniProt O43251-10, residues 100-194)
# Technique: RNA Bind-n-Seq
# Form: RNA
# Medium: in vitro
# Tested at: 365 nM
# Setting: natural RNA segment, single round, ends assumed
# Baseline: no-protein control
# Direction: higher = stronger binding
# All sequences stand within: GGGAGUUCUACAGUCCGACGAUC … UGGAAUUCUCGGGUGCCAA
# Construct (chain): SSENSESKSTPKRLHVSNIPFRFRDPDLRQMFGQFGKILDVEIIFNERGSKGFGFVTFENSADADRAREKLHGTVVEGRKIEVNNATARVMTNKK
Strand,RBNS enrichment (R)
UCAGAACAGAGGCUUUUUGUUUUUUGUUUUUUUGUUUUUGUUUUUAUUAUUAUGUUAUCAGUAAUCACUGGCAAAAAAAAAAAAAACAAUGGCCAGGUACUACACUGUCG,0.436
UAAACUCAUGAAUUAUAGGCAUUUUUAAUUUUUUGUAGACUAUGAACCCUGGCUGAUAUUGAAGUCAUCAUUGUUGGAUGGUUUAUUCUGUUUUGUUGUUAAUGCUCAGA,1.21
UGAGUCAUAGAAAAAUGGCCUUAUUUCUCCAGAAGUGAGUAAACCACACUUCCAGGCUAUCUGAACUCCUGAAGCCCUAAAAAUAAAAAGCACAGUUGUAACUACCUGAA,0.667
CCGUGUGCUUUAAAAAGGUGUUGUUAUGAAGUUUGCUGUUCUGGCAAUAAACUUGCAGACCUUGGAAGUGCUUGUGUUUUGAUUUCUAAUGCAUUUAUGCAUACAAAGAC,0.283
AAAAGUUAAACUAUGAUGCUUAAAUAUGUUUCUCUGCCUUAUUUUAUAAGUGUGUGAUAAUAGAUAGCAGAGAGAUUAUUUGGGAGGGGCAGAGACAAUAAGGCCACAGC,1.12
GUUGGAGUGCAGUGGCACGAUCUCGGCUCACUGCAACCUCACCUCCCGGGUUCAAGAGAUCCUCCUGCCUCAGCCUCCUGAGCAGCUGGGACUACAGGCGCAUGCCACCA,1.64
CCCCCUGGGCUGACCAAAAUGUGCUUUCUACUGUGAGUCCCUAUCCCAAGAUCCUGGGGAAAGGAGAGACCAUGGUGUGAAUGUAGAGAUGCCACCUCCCUCUCUCUGAG,0.707
CCUCACCCUGUGUUGCCCACCUCAGCCACCACUAAGACUGAUACUGAAAUAAAUCAUGUUAAUCCCAGCUGUGUGCUAUCACUCUUGGCCUUCUAUGUCCAGCCCAGUCU,0.333

# Block 4
# Target: Histone acetyltransferase KAT6A, winged helix 2, GST fusion (KAT6A, Homo sapiens, UniProt Q92794, residues 85-181)
# Technique: protein binding microarray
# Form: double-stranded DNA, one strand shown
# Medium: in vitro
# Tested at: not given
# Setting: 8-mer, flanks averaged, mean of 2 arrays, mostly near background
# Baseline: not given
# Direction: higher = stronger binding
# Construct (chain): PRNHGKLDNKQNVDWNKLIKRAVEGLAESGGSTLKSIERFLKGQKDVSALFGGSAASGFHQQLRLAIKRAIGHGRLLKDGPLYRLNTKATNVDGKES
Strand,E-score
CCCACTGA,0.0453
AACGATGT,-0.091
CTAGCTAG,0.0933
CGGGGTAG,-0.0835
CGATCGGC,0.157
AGTTGCTG,0.0319
CTTAAGCA,0.0741
CTGTAGCC,-0.0939
AATGACCC,-0.25
ATCACTGA,0.0559
CAGGTATG,-0.0256
CGAGCCCC,0.0115
ACGGCGCG,0.309
CGCATCTA,0.0951
GCTGAGTA,0.0588
AACAGAAG,-0.0106
ACGGACAA,0.102
GGCCCAAA,0.191
GTAAATCA,0.0561
ACCGACAG,0.0734
AAAACTGT,-0.0615
GTGGCTTA,-0.122
ATATTGAC,-0.0118
AGTTGTTC,-0.174
GTTTGACA,0.0446

# Repeated from above (block 4):
Strand,E-score
GTGGCTTA,-0.122
CGAGCCCC,0.0115
CAGGTATG,-0.0256
AACAGAAG,-0.0106
GTAAATCA,0.0561
GTTTGACA,0.0446
